Results gathered from unrelated publications.
Lines come from different studies, so protocols differ. ± marks the error that the study gave.

SMILES	test system	setting	tissue uptake
N=C(N)NCc1ccc(C(=O)NCCCC[C@H](NC(=O)N[C@@H](CCC(=O)O)C(=O)O)C(=O)O)cc1[211At]	SCID mouse, PC-3 xenografts, liver	14 h	0.6 ± 0.28 %ID/g
O=C(c1ccc(F)cc1)C1CCN(C2Cc3c(cccc3OCC[18F])CC2O)CC1 (single isomer, unassigned; (-))	Sprague-Dawley rat, male, whole brain	120 min post-injection	0.409 ± 0.016 %ID/g
COc1cc2ccnc(Cc3ccc(O[11CH3])c(OC)c3)c2cc1OC	Sprague-Dawley rat, brain stem	intravenous, 30 min	0.043 ± 0.004 %ID/g
CCNc1cc2[o+]c3cc(NCC)c(C)cc3c(-c3ccccc3C(=O)OCCOCC[18F])c2cc1C	rat, spleen	120 min	1.86 ± 0.41 %ID/g
N=C(N)NCc1ccc(C(=O)NCCCC[C@H](NC(=O)N[C@@H](CCC(=O)O)C(=O)O)C(=O)O)cc1[131I]	SCID mouse, PC-3 xenografts, kidneys	4 h	111 ± 61 %ID/g
O=C(O)CC[C@H](NC(=O)O[C@@H](CCCCNC(=O)c1ccc([18F])cc1)C(=O)O)C(=O)O	mouse, PC-3 PIP/flu xenografts, fat	30 min	1.23 ± 1.88 %ID/g
C=Cc1cc(O)cc2nc(-c3ccc(O)c([76Br])c3)oc12	female C57BL/6 mouse, liver	1 h, high dose, with: estradiol 20 µg blocking	0.51 ± 0.12 %ID/g
COc1cc2ncnc(Oc3cccc(N[11C](=O)Nc4cc(C(C)(C)C(F)(F)F)on4)c3)c2cc1OC	Balb/c nude mouse, female, A375 melanoma xenograft, liver	6.6 MBq, 60 min	25.2 ± 0.57 %ID/g
CN[C@](C)(C[18F])C(=O)O	SCID mouse SK-OV-3 xenograft, spleen	120 min, post injection	6.2 ± 0.9 %ID/g
N=C(N)NCc1ccc(C(=O)NCCCC[C@H](NC(=O)CCCCCCC(=O)NCCCC[C@H](NC(=O)N[C@@H](CCC(=O)O)C(=O)O)C(=O)O)C(=O)O)cc1[131I]	SCID mouse, PC-3 xenografts, bone	1 h	0.33 ± 0.09 %ID/g
